Assay results collected from several papers.
Lines come from different studies, so protocols differ. Several values in a cell are separate wells, animals, samples, runs or records. ± gives the spread as reported.

SMILES | tested on | test | test system | conditions | how to read | endpoint | result
O=C1c2ccccc2CCCN1CCCCN1CCN(c2cccc(Cl)c2Cl)CC1 | – | – | mouse liver microsomes | 0.5 µM | – | intrinsic clearance | > 50 mL/min/g
CN1Cc2cc(Cl)ccc2-n2c(nnc2C2CCN(c3cccc([18F])n3)CC2)C1 | – | – | C57BL/6 mouse male, urinary bladder | intravenous, 3.7 MBq, 60 min | – | tissue uptake | 17.4 ± 9.22 %ID/g
CC[C@H](C)[C@H](NC(=O)[C@H](CCCN)NC(=O)[C@H](CCCNC(=N)N)NC(=O)[C@@H]1CCCN1C(=O)[C@@H]1CCCN1C(=O)[C@H](CCCNC(=N)N)NC(=O)[C@@H]1CCCN1C(=O)[C@H](CCCNC(=N)N)NC(=O)[C@@H]1CCCN1C(=O)[C@H](CC(C)C)NC(=O)[C@H](Cc1ccc(O)cc1)NC(=O)[C@@H]1CCCN1C(=O)[C@@H]1CCCN1C(=O)[C@H](CCCCN)NC(=O)[C@H](CC(=O)O)NC(=O)[C@@H](N)C(C)C)C(=O)N[C@@H](Cc1ccc(O)cc1)C(=O)N[C@@H](CC(N)=O)C(=O)N[C@@H](CCCN)C(N)=O | – | cELISA | CD-1 mice, urine | subcutaneous, 4.34 µmol/kg, 1 h | – | total urine concentration | 251 mg/L
COc1ccccc1-c1n[nH]c2nc(NC3CCN(C(=O)Cc4ccc(F)cc4F)CC3)ncc12 | – | bead binding, competition bead pull-down, item: LINJ.30.3390 | Leishmania donovani axenic amastigote extract | 10 µM | baseline: vehicle | relative abundance | 1.04
CCCC[C@H]1C(=O)N(C)[C@@H](CCCC)C(=O)N[C@@H](CCCNC(=O)CN2CCN(CC(=O)O)CCN(CC(=O)O)CCN(CC(=O)O)CC2)C(=O)N[C@H](C(=O)NCC(N)=O)CSCC(=O)N[C@@H](Cc2ccc(O)cc2)C(=O)N(C)[C@@H](C)C(=O)N[C@@H](CC(N)=O)C(=O)N2CCC[C@H]2C(=O)N[C@@H](Cc2c[nH]cn2)C(=O)N[C@@H](CC(C)C)C(=O)N(C)CC(=O)N[C@@H](Cc2c[nH]c3ccccc23)C(=O)N[C@@H](CO)C(=O)N[C@@H](Cc2c[nH]c3ccccc23)C(=O)N1C [gallium-68 labelled] | – | – | NOD/SCID mice, CHO-hPD-L1 xenograft, lung | 60 min, together with: blocking agent 50 µg co-injected | – | tissue uptake | 13.2 ± 3.13 %ID/g
CC[C@H](C)[C@H](NC(=O)[C@H](CCCCN)NC(=O)CNC(=O)[C@H](CC(C)C)NC(=O)[C@H](Cc1ccccc1)NC(=O)[C@H](CCCCN)NC(=O)[C@H](CO)NC(=O)[C@H](Cc1ccccc1)NC(=O)[C@H](Cc1c[nH]c2ccccc12)NC(=O)[C@H](CCC(N)=O)NC(=O)[C@@H](NC(=O)[C@H](Cc1ccccc1)NC(=O)CCCCCNC(=O)CN1CCN(CC(=O)O)CCN(CC(=O)O)CCN(CC(=O)O)CC1)C(C)C)C(=O)N[C@@H](CCC(=O)O)C(=O)N1CCC[C@H]1C(=O)N[C@@H](CC(=O)O)C(=O)N[C@H](C(=O)N[C@@H](CO)C(=O)N[C@@H](CCC(N)=O)C(=O)N[C@H](C(=O)N[C@@H](CCC(N)=O)C(=O)N[C@@H](CC(=O)O)C(=O)N1CCC[C@H]1C(=O)N[C@@H](CC(N)=O)C(=O)N[C@@H](CC(=O)O)C(=O)N[C@@H](CCC(N)=O)C(=O)N[C@@H](Cc1ccc(O)cc1)C(=O)N[C@@H](CCC(=O)O)C(=O)N1CCC[C@H]1C(=O)N[C@@H](Cc1ccccc1)C(=O)O)C(C)C)C(C)C [copper-64 labelled] | – | – | C57BL/6 mice, male, tumour-free, stomach | 24 h | – | tissue uptake | 3.27 ± 0.2 %ID/g
CC(C)[C@@H]1NC(=O)CNC(=O)[C@H](CC(N)=O)NC(=O)[C@H](CCCNC(=N)N)NC(=O)[C@H](Cc2ccc(O)cc2)NC(=O)[C@H](C(C)C)NC(=O)[C@@H](NC(=O)[C@@H](NC(=O)[C@H](CC(N)=O)NC(=O)[C@H](Cc2c[nH]c3ccccc23)NC(=O)[C@H](C)NC(=O)[C@H](Cc2ccccc2)NC(=O)CNC(=O)[C@H](CCCCN)NC(=O)[C@H](Cc2ccccc2)NC(=O)[C@H](Cc2ccccc2)NC(=O)[C@H](CCCCN)NC(=O)OCC2c3ccccc3-c3ccccc32)C(C)C)CSSC[C@@H](C(=O)N[C@@H](Cc2c[nH]cn2)C(=O)N[C@@H](CCCNC(=N)N)C(=O)N[C@@H](CCCNC(=N)N)C(=O)N[C@@H](C)C(=O)N[C@@H](CC(N)=O)C(N)=O)NC(=O)[C@H](C(C)C)NC(=O)[C@H](CCCNC(=N)N)NC1=O | – | – | ICR mice, serum | intraperitoneal, 10 mg/kg, day 5 | – | albumin | 33.4 ± 0.92 g/L
CC(C)(C)C(=O)OCOP(=O)(OCOC(=O)C(C)(C)C)C1CCCN(O)C1=O (stereo not shown) | OVCAR-3 | – | – | – | – | GI50 | 559 nM
CCCCCCCCCCCCCCCC(=O)N[C@@H](CCC(=O)NCCOCCOCCC(=O)NCCOCCOCCC(=O)NCCCC[C@H](NC(=O)[C@H](CC(=O)O)NC(=O)[C@H](CC(C)C)NC(=O)[C@H](Cc1ccc(O)cc1)NC(=O)[C@H](CCCCN)NC(=O)[C@H](CO)NC(=O)[C@H](Cc1ccc(O)cc1)NC(=O)[C@H](CC(=O)O)NC(=O)[C@H](CO)NC(=O)[C@@H](NC(=O)[C@H](Cc1ccccc1)NC(=O)[C@@H](NC(=O)CNC(=O)[C@H](CCC(N)=O)NC(=O)[C@@H](CO)NC(=O)[C@@H](N)Cc1c[nH]cn1)[C@@H](C)O)[C@@H](C)O)C(=O)N[C@@H](CCCNC(=N)N)C(=O)N[C@@H](CCCNC(=N)N)C(=O)N[C@@H](C)C(=O)N[C@@H](CCC(N)=O)C(=O)N[C@@H](CC(=O)O)C(=O)N[C@@H](Cc1ccccc1)C(=O)N[C@H](C(=O)N[C@@H](CCC(N)=O)C(=O)N[C@@H](Cc1c[nH]c2ccccc12)C(=O)N[C@@H](CC(C)C)C(=O)N[C@@H](CC(C)C)C(=O)N[C@@H](CC(N)=O)C(=O)N[C@H](C(=O)NCC(=O)NCC(=O)N1CCC[C@H]1C(=O)N[C@@H](CO)C(=O)N[C@@H](CO)C(=O)NCC(=O)N[C@@H](C)C(=O)N1CCC[C@H]1C(=O)N1CCC[C@H]1C(=O)N1CCC[C@H]1C(=O)N[C@@H](CO)C(N)=O)[C@@H](C)O)C(C)C)C(=O)O | – | – | rhesus monkey, male | subcutaneous, 300 µg/kg once daily, 28 days | – | total bilirubin | 9.4 ± 6 µmol/L
O=C1NC2(CC2)COc2ncc(F)cc2[C@H]2COCCN2c2ccn3ncc1c3n2 | – | – | Sprague-Dawley rat, female, heart | oral, 5 mg/kg/day, 4 weeks, end of treatment | – | organ-to-body weight ratio | 0.364 ± 0.02%
C=C/C=C/C[C@@H](C)[C@@H](O)[C@H]1C(=O)N[C@@H](CC)C(=O)N(C)CC(=O)N(C)[C@@H](CC(C)C)C(=O)N[C@@H](C(C)C)C(=O)N(C)[C@@H](CC(C)C)C(=O)N[C@@H](C)C(=O)N[C@H](C)C(=O)N(C)[C@@H](CC(C)C)C(=O)N(C)[C@@H](CC(C)C)C(=O)N(C)[C@@H](C(C)C)C(=O)N1C | – | – | Wistar Kyoto rat, male, plasma | ip, 0.5 mg/kg/day, day 18 | – | plasma Na+ level, median | 142 mmol/L
N=C(N)NCCC[C@@H](NC(=O)[C@H](N)Cc1c[nH]c2ccccc12)C(=O)N[C@H](CCCCN)C(=O)N[C@H](Cc1c[nH]c2ccccc12)C(=O)N[C@H](CCCNC(=N)N)C(=O)N[C@H](CCCCN)C(=O)N[C@H](Cc1c[nH]c2ccccc12)C(=O)N[C@H](CCCNC(=N)N)C(=O)N[C@H](CCCCN)C(=O)N[C@H](Cc1c[nH]c2ccccc12)C(=O)N[C@H](CCCNC(=N)N)C(=O)N[C@H](CCCCN)C(N)=O | – | – | mouse, heart | intravenous, 20 mg/kg single dose, 7 days | – | organ index | 0.448
COc1nc(CC=C(C)CC=CC(C)=CC(C)C(OC2OC(CO)C(O)C(O)C2O)C(C)=CCO)c(C)c(O)c1OC (stereo not shown) | – | – | C57BL/6 mouse, plasma | oral, 10 mg/kg | – | clearance | 203 ± 22.8 L/h/kg
CC[C@H](C)[C@H](NC(=O)[C@H](C)NC(=O)[C@H](CCCCN)NC(=O)[C@H](CC(C)C)NC(=O)[C@@H](N)Cc1ccccc1)C(=O)N[C@@H](CCCCN)C(=O)N[C@@H](CCCCN)C(=O)N[C@@H](Cc1ccccc1)C(=O)NCC(=O)N[C@@H](CCCCN)C(=O)N[C@@H](CCC(=O)O)C(=O)N[C@@H](Cc1ccccc1)C(=O)N[C@@H](CCCCN)C(=O)N[C@@H](CCCCN)C(=O)N[C@H](C(=O)NCC(=O)N[C@@H](C)C(=O)N[C@@H](CCCCN)C(=O)N[C@@H](CC(C)C)C(=O)N[C@@H](CCCCN)C(=O)O)[C@@H](C)CC | – | – | human red blood cells | 0.5 mg/L, 1 h | – | hemolysis | 0.143%
C#Cc1c(F)ccc2cc(O)cc(-c3ncc4c(N5CC6CCC(C5)N6C(=O)OC(CC)OC(=O)CCC)nc(OC[C@@]56CCCN5C[C@H](F)C6)nc4c3F)c12 (stereo partly shown) | – | chemical stability | simulated intestinal fluid | 1 µM, 30 min | – | compound remaining | 101%
N=C(N)NCCC[C@H](NC(=O)[C@H](CCCNC(=N)N)NC(=O)[C@H](CCCNC(=N)N)NC(=O)[C@H](CCC(N)=O)NC(=O)[C@H](CCCNC(=N)N)NC(=O)[C@H](CCCNC(=N)N)NC(=O)[C@H](CCCCN)NC(=O)[C@H](CCCCN)NC(=O)[C@H](CCCNC(=N)N)NC(=O)CNC(=O)[C@H](Cc1ccc(O)cc1)NC(=O)[C@H](Cc1ccccc1)NC(=O)[C@H](Cc1ccccc1)NC(=O)[C@H](Cc1ccccc1)NC(=O)Cc1ccc2ccccc2c1)C(=O)O | – | – | C57BL/6 mice | intraperitoneal, 20 mg/kg, 48 h | direction not given | health score | 5
C=Cc1c(C)c2cc3nc(c(CC(=O)O)c4[nH]c(cc5nc(cc1[nH]2)C(C)=C5CC)c(C)c4C(=O)O)[C@@H](CCC(=O)NCCCC[C@H](NC(C)=O)C(=O)N[C@@H](Cc1ccccc1)C(=O)N[C@@H](Cc1ccccc1)C(=O)N[C@H](C(=O)N[C@@H](CC(C)C)C(=O)N[C@@H](CCCCN)C(=O)N[C@@H](CO)C(=O)NCC(=O)N[C@@H](CCC(N)=O)C(=O)N[C@@H](Cc1ccc(O)cc1)C(=O)N[C@@H](C)C(=O)N[C@@H](CO)C(=O)N[C@@H](Cc1ccc(O)cc1)C(=O)N[C@@H](Cc1c[nH]cn1)C(=O)N[C@@H](CS)C(=O)N[C@@H](Cc1c[nH]c2ccccc12)C(=O)N[C@@H](CS)C(=O)N[C@@H](Cc1c[nH]c2ccccc12)C(=O)N[C@@H](CCCNC(=N)N)C(=O)N[C@@H](CC(=O)O)C(=O)N1CCC[C@H]1C(=O)NCC(=O)N[C@@H](CCCNC(=N)N)C(=O)N[C@@H](CO)C(=O)NCC(=O)NCC(=O)N[C@@H](CO)C(=O)N[C@@H](CCCCN)C(N)=O)C(C)C)[C@@H]3C | – | – | mouse, blood | 3 h | – | blood concentration | 113 µg/mL
CSCC[C@H](NC(=O)[C@@H](NC(=O)[C@H](CC(C)C)NC(=O)[C@@H](NC(=O)[C@H](Cc1c[nH]cn1)NC(=O)CCCCCNC(=O)[C@H](CCCNC(=N)N)NC(=O)[C@H](CCCNC(=N)N)NC(=O)[C@H](CCCNC(=N)N)NC(=O)[C@H](CCC(N)=O)NC(=O)[C@H](CCCNC(=N)N)NC(=O)[C@H](CCCNC(=N)N)NC(=O)[C@H](CCCCN)NC(=O)[C@H](CCCCN)NC(=O)[C@H](CCCNC(=N)N)NC(=O)CNC(=O)[C@@H](N)Cc1ccc(O)cc1)C(C)C)C(C)C)C(=O)N[C@@H](CS)C(=O)N[C@@H](C)C(=O)N[C@H](C(N)=O)[C@@H](C)O | – | – | C57BL/6J mice | Alzet osmotic pump, 3 mg/kg, 8 weeks | – | total bilirubin | 0.1 mg/dL and 0.2 mg/dL
CC(C)(c1cc(Br)c(O)c(Br)c1)c1cc(Br)c(O)c(Br)c1 | – | ultrafiltration | cow milk whey | 20 nM nominal in whole milk | – | final permeate concentration | 0.69 nM

A few entries again:
SMILES | tested on | test | test system | conditions | how to read | endpoint | result
CN1Cc2cc(Cl)ccc2-n2c(nnc2C2CCN(c3cccc([18F])n3)CC2)C1 | – | – | C57BL/6 mouse male, urinary bladder | intravenous, 3.7 MBq, 60 min | – | tissue uptake | 17.4 ± 9.22 %ID/g
CC[C@H](C)[C@H](NC(=O)[C@H](CCCN)NC(=O)[C@H](CCCNC(=N)N)NC(=O)[C@@H]1CCCN1C(=O)[C@@H]1CCCN1C(=O)[C@H](CCCNC(=N)N)NC(=O)[C@@H]1CCCN1C(=O)[C@H](CCCNC(=N)N)NC(=O)[C@@H]1CCCN1C(=O)[C@H](CC(C)C)NC(=O)[C@H](Cc1ccc(O)cc1)NC(=O)[C@@H]1CCCN1C(=O)[C@@H]1CCCN1C(=O)[C@H](CCCCN)NC(=O)[C@H](CC(=O)O)NC(=O)[C@@H](N)C(C)C)C(=O)N[C@@H](Cc1ccc(O)cc1)C(=O)N[C@@H](CC(N)=O)C(=O)N[C@@H](CCCN)C(N)=O | – | cELISA | CD-1 mice, urine | subcutaneous, 4.34 µmol/kg, 1 h | – | total urine concentration | 251 mg/L
COc1ccccc1-c1n[nH]c2nc(NC3CCN(C(=O)Cc4ccc(F)cc4F)CC3)ncc12 | – | bead binding, competition bead pull-down, item: LINJ.30.3390 | Leishmania donovani axenic amastigote extract | 10 µM | baseline: vehicle | relative abundance | 1.04
